Experimental data of several laboratories.
Each numbered part is a random draw from the data of one study; scales do not carry over between parts.

Block 1 — technique: EMSA with sequencing; molecule type: double-stranded DNA, one strand shown; sample: in vitro; tested at: 10 and 20 nM; reference: negative control set to 0; direction: higher = stronger binding
Target: Hepatocyte nuclear factor 3-alpha (Foxa1, Mus musculus, UniProt P35582, residues 1-468, full length assumed)
Notes: whole designed probe, mean of two concentrations, ends assumed
All sequences stand within: GTGAGCGGTGCCCATTGATGGGGAAC … TTTCACTGGGATCGTGGGGAC
Residues (chain): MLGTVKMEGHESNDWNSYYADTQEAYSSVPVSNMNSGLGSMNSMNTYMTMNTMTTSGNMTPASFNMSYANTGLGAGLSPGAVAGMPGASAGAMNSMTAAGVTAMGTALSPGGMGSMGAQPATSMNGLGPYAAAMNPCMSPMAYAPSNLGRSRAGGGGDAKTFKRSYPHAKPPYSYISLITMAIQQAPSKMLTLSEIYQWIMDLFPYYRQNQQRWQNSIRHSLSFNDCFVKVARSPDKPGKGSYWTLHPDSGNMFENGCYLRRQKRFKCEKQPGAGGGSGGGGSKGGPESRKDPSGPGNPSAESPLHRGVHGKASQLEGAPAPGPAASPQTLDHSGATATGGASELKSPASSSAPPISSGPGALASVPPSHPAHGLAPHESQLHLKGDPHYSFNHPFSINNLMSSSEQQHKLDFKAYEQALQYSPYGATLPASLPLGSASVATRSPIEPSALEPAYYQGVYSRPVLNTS
Strand | normalised bound fraction
GGACACAGCCAGAGGCCATGAGTGCTCAGGAGTGCCATAAACTGTGATTTTGAGACTGATAAGGCCCTGGGTGTGTCAGGCTAAATAGCTTGTTGTTTGCCTTTTTATATTTGAGGCCTATAAAAAAATAGTGAGAAAATAGCAAGATGCCCAGGAGACAGGTGATCTGATTCAGCCAGGGGGTGGGAGGTGG | 0.0783 ratio
TAACCTGAGAGTATTTTTTGGTCGTACAGGAAGTGTATCACATCTTTGCTTGCAGGTGATTATTTTTCCTAATTTAATTAGGCCCATAAAATGTAATCTAGCAACTGGGGCTCAGTCATTATTAATTTAGAATATAGACTCAAGAGATGCTGGAACTATAAAGGCAGAAGAATGCATTCTTGACATAGGTAAA | -0.0126 ratio
CATACAAGAAAATAACTGTAGGCACAACTGGCACAATTATATTAGTAATAATGATGGGATAAAAATATAAAGATGCATATGTAAATTGATCTGTGTAATCTTGAATATAGTATTTGCCAAGTGACATAGACAAATATATTAAATAATATACTTTTGAATATTGGTATCAGAATCATAAAATCTTTAAAAATCA | 0.32 ratio
TGTTCCAGCAGGTTGATGGAGCATAGGGGCTTCAAAGGAACCGGTGATGCAGTCATGCTGTGGCTGGAGTTTACGAAAGGCTGACTCACCAAAGGTCAACAGAGACATTTACACAAACATCCTGACCCCAAGTCCAGTGCTCTTTCTAATCTATAACAGGGTTCTTCCTTTTTTTCTTTTTCTTTCACTTTTT | 0.0971 ratio
AAGCCCCACGCACTGTCCGTGGGCGTCTCTGGCCTCCCGGACTTGTATCACAGACCCCAGCCCAAGAGACACAGGCAGAGGAAATGCTCAGTGTAATCTTGGGAATGGGAGGGTGGCCCTGCCCTGTGGCCCGGCCTGCCCTGACCTGCAACCATGCACAGTAGCCAGGTGCCACGTAGGGCCCAATGTCTGC | -0.0788 ratio
ATCTTCCCCCTCTTCCTTGCCCCACCAGCTCACCTTCCCGGGTTATTTGCAGATAGGAAAATAAATAAAGCCGGCATTCGTTAACCCTCTTCTGGCGCAAACTGCTGTTTGCTCTGGATGAATCATGGTCCTTTGCGGAGCGCCAGCTCCGGGAGAGCAAAGCACCGTGTCAGGGCCATGATCCGGGGTGGCC | 0.344 ratio
ATCTTCCCCCTCTTCCTTGCCCCACCAGCTCACCTACGGGGGTTATTTGCAGATAGGAAAATAAATAAAGCCGGCATTCGTTAACGCAGTTCACGCGCATACTGCTGTTTGCTCTGGATGAATCATGGTCCTTTGGCGAGGCGTGGCTCCGGGAGAGCAAAGCACCGTGTCAGGGCCATGATCCGGGCTCGCC | 0.344 ratio
GTGTGTGCGCGCGCGTGTGTGTGTGTTTTCTTAAGCCGGGCTATTCAAACCCTGCTGCCAATGATTCATAATTCTCCGGTAAAGGGGCATAATGCAAATAAACGGATTGCAAACGGCGCGGTTCGCGCACTTTGCAGCCGGCCCGGTGGAGCAGCCAGTGCCGGATTTCTCCCTTTTTTTGCAGATCTGCAGA | 0.419 ratio

Block 2 — technique: aptamer microarray, sandwich; molecule type: DNA with 2'F-ANA; sample: in vitro; tested at: 200 nM; with: Cy3 exosite-II aptamer, 400 nM; direction: higher = stronger binding; strand: GGTTGGTGTGGTTGG
Target: Prothrombin, mature alpha-thrombin (F2, Homo sapiens, UniProt P00734)
Notes: whole 15-mer aptamer, many near background
Modification | mean fluorescence intensity
2'F-ANA at 1 3 5 9 10 11 13 | 49.2 a.u.
2'F-ANA at 1 2 5 7 9 12 | 185 a.u.
2'F-ANA at 1 2 4 6 8 10 12 13 15 | 52.9 a.u.
2'F-ANA at 1 2 8 9 11 12 13 | 237 a.u.
2'F-ANA at 5 6 7 8 10 11 12 | 54.4 a.u.
2'F-ANA at 1 4 5 6 8 9 10 11 14 | 55.7 a.u.
2'F-ANA at 1 4 5 6 8 9 10 11 12 13 14 15 | 59.1 a.u.
2'F-ANA at 2 6 9 14 | 121 a.u.
2'F-ANA at 2 3 4 5 6 7 9 13 | 54.7 a.u.
2'F-ANA at 1 3 4 7 12 14 15 | 114 a.u.
2'F-ANA at 2 3 4 5 8 12 15 | 221 a.u.
2'F-ANA at 2 3 4 6 12 15 | 766 a.u.
2'F-ANA at 2 3 5 9 14 | 77.4 a.u.
2'F-ANA at 5 7 8 9 11 14 | 46.4 a.u.
2'F-ANA at 2 3 4 6 8 9 13 14 | 211 a.u.
2'F-ANA at 1 2 4 5 6 8 11 13 | 111 a.u.
2'F-ANA at 3 4 6 7 11 14 | 315 a.u.
2'F-ANA at 1 2 5 8 9 11 12 13 14 | 46 a.u.

Block 3 — technique: RNA Bind-n-Seq; molecule type: RNA; sample: in vitro; tested at: 365 nM; reference: no-protein control; direction: higher = stronger binding
Target: RNA binding protein fox-1 homolog 2, RRM domain, GST-SBP tag (RBFOX2, Homo sapiens, UniProt O43251-10, residues 100-194)
Notes: natural RNA segment, single round, ends assumed
All sequences stand within: GGGAGUUCUACAGUCCGACGAUC … UGGAAUUCUCGGGUGCCAA
Target sequence (chain): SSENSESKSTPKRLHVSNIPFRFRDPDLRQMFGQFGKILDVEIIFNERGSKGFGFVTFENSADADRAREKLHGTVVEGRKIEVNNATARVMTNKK
Strand | RBNS enrichment (R)
CUGAAUGUUGACAUGCCAGCGGGCGUGUGACCCUUCAUUUUCCCUUUCCCUUCCUUUGGACAGUGUUACAAUGAACACUUAGCAUUCUGUUUUUGGUUGAUAGUUGAGCA | 1.04
CUACUCUUGUUUUCCCUCAUGAUAAUAAAUUUGUCAUAACUCAGUAACAUGAACUUGCCCCUAGAGGUAGUUGUUAAUAAUUUUGAAAUAUUAAGGUCUUGCCAAGCUUC | 0.585
GCUUCCACUCCAGGGCUCUUGAUCUCUGCUGGAUUGGGGGUGGCCACCUCAGAAACUUCCACCCUCAUGACUGGAAUGGAAGAGGGGACCGAGAGCCUCACAAUCUCGGA | 0.903
AUGAGAGGCGGGGACCGUGCAGCUGUCGGCUGAUGAGGAGGCGGCCGCCCCAGUGCUGAUGGAGAUGCCACUUUCGUGUGACUGCGAACAUUAAAGCACAAAAAAAUCCA | 0.826
ACUAGUUCUGUCCCCCCAGGAGACCUGGUUGUGUGUGUGUGAGUGGUUGACCUUCCUCCAUCCCCUGGUCCUUCCCUUCCCUUCCCGAGGCACAGAGAGACAGGGCAGGA | 0.491
AAUGCAAACGGCCACUGCAUUUUAAUGAUUGUUAUUCUUUUAUGAAUAAAAUGUAUGUAGAAACAAGCAAAUUUACUGAAACAAGCAGAAUUAAAAGAGAAACUGUAACA | 0.623
UCUGUUUGAUACCUUGAGAGCAGAUACCUGGUCAGCGAGCUUUUAGGGGGGGGCGUUCAAAGGAAGCUGUUUAGCCUGACCGCAAGUACUGAAGUCUCUGCUUUCUGUCA | 0.683
GCUACCAUUCCCAAUGGGGCAGUCAACUCUGAGAAUAUUACAAGCCAUCUUUAUUGCCAAAACCAGCAAGUACACAGAGUCCUGAAACAAGGCAGGACUUUGGCAAUGCC | 0.471
CUGUUUGAACUUAAGAAGAAUAAACUACACUUUACUUUAUGUGCAGAAAUGAGACAUUCUGACAAUAAUGAAGUGCUUCAUGGUAUCUCAACAGUGUACUUUCUUGUAAU | 0.386
GAGGAGUGGUUCAGUUUAGCCCUGCAAGACAUCUAUAACUUGACUGUUUGCUAAACCACAACUCUUUUUGGCUACUUGGGUCAUAGAGACAGCAGAGUUGCUCCAAGUAU | 0.312
UUGCACAAUGGUAUAACACGGCAACACGUUGCCUUCUUCAGAAUCCUGGAAAUCGACACACUGAACAGUGCACUUUUAGUUCACUGCUAAACAAAGCACACUUUUCAGGA | 0.271
ACUUAGCUUUGUAUUUCAAAUGAAUUUGCAUAAAACCUGUUCAUCUUUAGCACCUUAUAGACAAAACUUUUUAUGGCUUUUCUCCCAUGGGCAAUGCUUGAUCUUAUACA | 0.491

Block 4 — technique: RNA Bind-n-Seq; molecule type: RNA; sample: in vitro; tested at: not given; notes: RNA with constant flanks, ends assumed; reference: input RNA pool; direction: higher = stronger binding
Target: RING finger protein unkempt homolog, zinc fingers 1-6, GST-SBP tag (UNK, Homo sapiens, UniProt Q9C0B0, residues 30-357)
Chain of UniProt Q9C0B0 (30-357, looked up): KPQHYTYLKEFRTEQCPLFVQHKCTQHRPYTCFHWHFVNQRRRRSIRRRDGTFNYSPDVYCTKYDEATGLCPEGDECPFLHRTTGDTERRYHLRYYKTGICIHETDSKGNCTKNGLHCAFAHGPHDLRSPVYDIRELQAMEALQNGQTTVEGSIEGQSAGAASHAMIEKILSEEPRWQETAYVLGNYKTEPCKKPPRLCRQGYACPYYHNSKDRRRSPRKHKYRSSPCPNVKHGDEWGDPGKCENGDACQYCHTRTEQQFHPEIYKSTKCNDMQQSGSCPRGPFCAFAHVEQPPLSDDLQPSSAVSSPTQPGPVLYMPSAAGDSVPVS
All sequences stand within: GGGAGUUCUACAGUCCGACGAUC … CAACAGAGGAUUGAGCAUCA
Strand | bound/input enrichment
UGAUUAUUCACUUUAGAUGCUGAUUCUUUUUUUUUUUUUUUUUUGUAUUUUUAAUGGGGGCCGCAGCUGGACCCUUGACCUUCUCAUGCCCACACCCACCCUGCCCUUCCCAUGGCUGCC | 8.89 ratio
UGUGUAUGUACUGGCAGUAUUAAAUUUAUUCAUCAAGAAUGCUUAGUUCAGUGGUUGAAACACCGUCGGAAAGAAUACUGUGAAUUAUGCAAGCACAGAUUUGCUUUCACACCAAUUUAU | 0.898 ratio
ACUAAUGCAGUGAUCGCCGGCUUGAUAGUGUUGGAAGGAUUAAAGAUUUUAUCUGGAAAAACCGACCAGUGUAGAACUAUUUUUUUGAAUAAGCAGCCAAACCCAAGAAAGAAGCUCUUG | 1.35 ratio
GCAUCACAGAGUGAACUGCCAUUAAGACAUCCAAGGUUUUAUCCAAAGCUGUUUGCUGGUAUCCGACAGAAGGCAGUGUCGAGCAGCCCUUCUGGAAAUGUUGCAUGGCCAGUGCUCUAG | 0.112 ratio
UAUGCAGGUGCCUUGAGAGCUUCAGGGGAAAUGGCUUCAGCGCAGUAUAUUACUGCAGCCCUCCGAGAUUUGUUUGAUUCCAUGGAUAAAACUUCUUCCAGUAUUCCACCUAUUAUUCUA | 0.47 ratio
AAACUCAGAGAGACCUUGACUUUCUUUGAUGAGCUUGAAAACAUCGGCAGAUAUCAAGGAACCCGUAACUUUAGGGAGAGUUUGGCAUCCCUGGUCCAGAGCUGCAGAAAACUUCAGAGC | 0.192 ratio
CGAAGUAAGAAAGCAAACCUAGGCAAGAAUGCAAGUGUGAAUGCGCACCAUGGACCAGCACCCGAAGCUGUGGAGACCACUGUGCCCAAGCAAGGACAAAACUUAUGGUUCCUGUGUGAC | 0.195 ratio
CCAAUUGUGGAGCAGUACUUGAAGACAAAGAAAAAUUCUAAUAAUUUAAUCAUCAAGUACAUCCGCUGCCGCCUGCUGACACUCAUCAUUAUACUGUUAGCGUGUAUCUACCUGGGCUAU | 0.224 ratio
GAAGAUGAAGCUAAUGUAGCCUGGAAGUAUUACAAAGUCCCAAAGAAAAAAGAUGCCGAAUUUUUACCACCUCAACUUCCAAAUGAUAAAUUCAAGGAUGAUCCAGUUGGACCUUUUGGA | 0.187 ratio
CGGUACCCAGACAUCCGCAUUGAAGGAGAGAAUUACCUCCCUCAACCAAUAUAUAGACACACCGCAUCUUUCCUGUCAGUCUUCAAACUAGUAUUAAUAGGCUUAAUAAUUGUUGGCAAG | 24.9 ratio
GUAUUAAGUUCCUCUCCUGCUGAUAAAUUGGAUUCUCGAUUUAGGAAGGGAACUUUUGGUACCCGAGAUGCUGAAACAGAUGGACCUGAGAAAGGAGAUCAAAAAGGCAAGGCUUCUCCA | 0.213 ratio

Repeated from above (block 3):
Strand | RBNS enrichment (R)
CUACUCUUGUUUUCCCUCAUGAUAAUAAAUUUGUCAUAACUCAGUAACAUGAACUUGCCCCUAGAGGUAGUUGUUAAUAAUUUUGAAAUAUUAAGGUCUUGCCAAGCUUC | 0.585
UUGCACAAUGGUAUAACACGGCAACACGUUGCCUUCUUCAGAAUCCUGGAAAUCGACACACUGAACAGUGCACUUUUAGUUCACUGCUAAACAAAGCACACUUUUCAGGA | 0.271
GCUUCCACUCCAGGGCUCUUGAUCUCUGCUGGAUUGGGGGUGGCCACCUCAGAAACUUCCACCCUCAUGACUGGAAUGGAAGAGGGGACCGAGAGCCUCACAAUCUCGGA | 0.903
